# Results pooled from the literature.
# Parts stem from different laboratories: compare values within a part only.

# Sample 1
# Target: Histone acetyltransferase KAT6A, winged helix 2, GST fusion (KAT6A, Homo sapiens, UniProt Q92794, residues 85-181)
# Technique: protein binding microarray
# Form: double-stranded DNA, one strand shown
# Medium: in vitro
# Concentration: not given
# Notes: 8-mer, flanks averaged, mean of 2 arrays, mostly near background
# Relative to: not given
# Reading: higher = stronger binding
# Construct (chain): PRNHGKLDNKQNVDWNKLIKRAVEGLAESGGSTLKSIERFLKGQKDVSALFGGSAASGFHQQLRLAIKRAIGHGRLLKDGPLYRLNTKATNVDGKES
Oligonucleotide,E-score
CGCAGTTA,0.0515
AGTTACAG,-0.155
ATCTTGCG,-0.0816
AGACCCAC,0.00611
GCAAGTGC,0.0384
ACGCGCCC,0.143
GTAGTTCA,-0.134
AAGGTCTA,-0.0986
CTAATGTC,-0.0985
CAATAAAC,0.141
ATAGGGCG,-0.00789
AAAGGACC,0.0319
CATTCCTC,0.0213
AACGGTTA,-0.24
CCGACATA,-0.0805
CACGGGTC,-0.053
CCGAGCGC,0.236
GCTGAGGA,-0.0382
GAATACTC,-0.0723
GGATAATA,0.0596
ACTGCCCC,0.0846
ATAAAATC,0.00958
ATCGCTAC,-0.19
CTGCAACC,-0.0888
AGGTACCT,-0.042

# Sample 2
# Target: Sal-like protein 4, full length isoform A (SALL4, Homo sapiens, UniProt Q9UJQ4, residues 1-1053)
# UniProt Q9UJQ4, sequence (whole entry, looked up): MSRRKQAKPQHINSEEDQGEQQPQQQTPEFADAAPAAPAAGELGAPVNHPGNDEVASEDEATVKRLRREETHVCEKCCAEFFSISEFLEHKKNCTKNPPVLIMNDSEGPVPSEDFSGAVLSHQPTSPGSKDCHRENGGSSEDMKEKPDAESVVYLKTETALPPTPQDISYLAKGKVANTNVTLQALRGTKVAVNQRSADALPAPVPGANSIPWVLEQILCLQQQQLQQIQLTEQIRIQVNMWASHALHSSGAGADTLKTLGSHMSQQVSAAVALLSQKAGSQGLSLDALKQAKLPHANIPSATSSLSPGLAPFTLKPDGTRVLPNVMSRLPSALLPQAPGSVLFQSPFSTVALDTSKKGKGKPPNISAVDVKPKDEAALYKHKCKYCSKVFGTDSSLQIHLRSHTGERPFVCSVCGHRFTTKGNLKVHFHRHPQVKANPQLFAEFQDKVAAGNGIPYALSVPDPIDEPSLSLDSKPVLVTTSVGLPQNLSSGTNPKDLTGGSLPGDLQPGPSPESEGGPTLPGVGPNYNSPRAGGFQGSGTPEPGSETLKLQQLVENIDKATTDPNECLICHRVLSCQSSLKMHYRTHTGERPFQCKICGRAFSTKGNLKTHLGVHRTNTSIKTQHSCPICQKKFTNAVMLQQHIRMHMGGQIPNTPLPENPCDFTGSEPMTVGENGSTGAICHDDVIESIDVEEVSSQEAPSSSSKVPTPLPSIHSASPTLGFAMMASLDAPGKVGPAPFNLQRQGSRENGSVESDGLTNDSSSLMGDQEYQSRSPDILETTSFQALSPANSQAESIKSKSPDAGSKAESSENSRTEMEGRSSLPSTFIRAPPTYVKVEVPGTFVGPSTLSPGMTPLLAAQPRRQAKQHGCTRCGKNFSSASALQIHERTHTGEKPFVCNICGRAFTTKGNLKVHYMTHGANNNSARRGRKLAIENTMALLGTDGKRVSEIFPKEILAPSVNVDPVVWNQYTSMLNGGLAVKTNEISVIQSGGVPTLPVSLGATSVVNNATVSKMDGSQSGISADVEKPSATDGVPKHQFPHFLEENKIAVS
# Technique: universal PBM
# Form: double-stranded DNA, one strand shown
# Medium: in vitro
# Concentration: 600 nM
# Notes: 8-mer, flanks averaged, mean of replicates
# Reading: higher = stronger binding
Oligonucleotide,E-score
AGCCGCAT,-0.175
CACTCCGA,-0.237
CTTTCTCA,0.256
AACCTTCC,-0.108
AAATAGAG,0.213
AGAGGCTG,-0.257
AACCATTA,0.234
CTAACAAG,0.177
CCCTTCAC,-0.103
AAGCAGAG,0.0729
CGCACCAC,-0.121
AATTACGA,0.307
CACCGTAA,0.0143
CAACTTAA,0.149
ATCCCATC,-0.0092
AAAGGCAG,0.0647
GATAGAAC,0.137
CAAACGGG,-0.226
CCAACAGG,-0.256
AAAAATCT,0.282
CAACCCCC,-0.216
GTCTCTGA,-0.162
ATATGGGC,0.0954
CGATAGGA,-0.0219
GCACCACA,-0.133

# Sample 3
# Target: Interferon regulatory factor 7, full length, phosphomimetic (IRF7, Homo sapiens, UniProt Q92985, residues 1-503, S471D/S472D/S475D/S476D/S477D/S483D/S484D/S487D)
# Technique: protein-binding microarray
# Form: double-stranded DNA, one strand shown
# Medium: in vitro
# Concentration: 2200 nM top
# Notes: 60-bp whole probe
# Added: salmon DNA 0.4 mg/ml
# Relative to: random background probes
# Reading: higher = stronger binding
# Shared flanks, not repeated: GCCTAGCAC … GTCTTGATTCGCTTGACGCTGCTG
# Residues (chain): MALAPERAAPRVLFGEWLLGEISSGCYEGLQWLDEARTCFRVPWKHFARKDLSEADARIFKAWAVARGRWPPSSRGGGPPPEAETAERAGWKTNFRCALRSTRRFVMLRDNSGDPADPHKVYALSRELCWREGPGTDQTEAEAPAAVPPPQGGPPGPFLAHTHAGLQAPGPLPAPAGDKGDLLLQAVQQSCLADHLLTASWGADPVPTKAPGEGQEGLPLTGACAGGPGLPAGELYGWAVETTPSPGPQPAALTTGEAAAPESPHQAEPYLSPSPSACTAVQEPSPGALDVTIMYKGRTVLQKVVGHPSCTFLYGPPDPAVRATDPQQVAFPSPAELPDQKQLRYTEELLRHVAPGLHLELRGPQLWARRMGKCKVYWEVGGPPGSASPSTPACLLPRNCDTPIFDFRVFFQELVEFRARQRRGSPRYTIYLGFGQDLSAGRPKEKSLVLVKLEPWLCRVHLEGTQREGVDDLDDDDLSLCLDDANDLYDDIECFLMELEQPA
Oligonucleotide,fitted relative affinity
TCAGTTTTCTCCATGGAACTGTGCTAG,1.66 z-score
GACGGACAGGGTTTCGGGACGTGCTAG,0.521 z-score
GACGATATCCTACTGCTGACGTGCTAG,0.944 z-score
TTAGGTTTCGGGTTTCGATTAGTGCTA,9.86 z-score
GACCGACTGGGACTGGGGACGTGCTAG,-0.901 z-score
TTAGAACCGAGTTTCGATTAGTGCTAG,4.2 z-score
GCTAGTATGTTCCTTATTTAAGTGCTA,0.62 z-score
TTAGGAGTGGACTTTCGGTTAGTGCTA,5.02 z-score
TTAGGACTGCTTTTCTTTTAGTGCTAG,1.4 z-score
TTAGATTTCGGTTCCGATTAGTGCTAG,6.32 z-score
CCCTATTTAAGGCTAGGCACGTGCTAG,0.507 z-score
GACGGACTGGGGACCGGGGACGTGCTA,-0.792 z-score
GACGATCTGAGTTTCGAGACGTGCTAG,2.21 z-score
TCAACTCTCTAATTTTGAGAGTGCTAG,0.129 z-score
TCATCACTCTAATCTCACACTGTGCTA,0.807 z-score
GACGTACTGAGTCTCGAGACGTGCTAG,0.285 z-score
GACGATCGCAGTATCGAGACGTGCTAG,-0.196 z-score

# Sample 4
# Target: RING finger protein unkempt homolog, zinc fingers 1-6, GST-SBP tag (UNK, Homo sapiens, UniProt Q9C0B0, residues 30-357)
# UniProt Q9C0B0, sequence (30-357, looked up): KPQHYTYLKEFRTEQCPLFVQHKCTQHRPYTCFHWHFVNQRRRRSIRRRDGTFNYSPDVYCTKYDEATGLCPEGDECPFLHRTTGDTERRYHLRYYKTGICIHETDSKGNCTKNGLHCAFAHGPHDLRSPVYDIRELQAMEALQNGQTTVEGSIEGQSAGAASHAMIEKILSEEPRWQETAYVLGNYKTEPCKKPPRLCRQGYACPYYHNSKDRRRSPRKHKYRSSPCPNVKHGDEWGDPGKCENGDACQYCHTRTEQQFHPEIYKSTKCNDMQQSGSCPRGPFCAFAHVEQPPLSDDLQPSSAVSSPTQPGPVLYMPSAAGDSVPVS
# Technique: RNA Bind-n-Seq
# Form: RNA
# Medium: in vitro
# Concentration: not given
# Notes: RNA with constant flanks, ends assumed
# Relative to: input RNA pool
# Reading: higher = stronger binding
Oligonucleotide,bound/input enrichment
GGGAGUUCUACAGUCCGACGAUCUUUUUCCUGCCCAAAGGAGCCUACAUUUAUAAUACACUAAUGGAAUUUAUCAGGAGUGAAUACCGGAAAAGAGGGUUCCAGGAGGUCGUCACUCCCAACAUCUUCAAUAGCCGGCUCUGGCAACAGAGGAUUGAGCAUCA,0.414 ratio
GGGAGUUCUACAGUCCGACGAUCUGAUUGGAUUAUUUGAAUGAAAUUUGCACACAACGAUUGAGUUGAACCUGCUUACUAUUUUCCGGAUUGUUUUAUUGUACUAACAACUUUUAAAGACUAUGAAGUAAAUAUUUCACGUAGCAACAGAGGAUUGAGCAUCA,0.442 ratio
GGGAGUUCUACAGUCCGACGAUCAACAAAGAUUAUCACCAGGAUGUGCGUAAUAACUUUUUGCCACCAAUUAUUGCACGUUUUAUCCGAGUGAAUCCUACCCAAUGGCAGCAGAAAAUUGCCAUGAAAAUGGAGCUGCUCGGACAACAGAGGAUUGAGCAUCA,0.115 ratio
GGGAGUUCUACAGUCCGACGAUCCUUGGCCAGGAGGGUGAUGCCAGCUAUCUUGCUUCUGAAAUAUCUACCUGGGAUGGAGUGACCGUAACACCUUCAGAAAAGGCUUAUGAGAAGCCACCAGAGAAGAAGGAAGGAGAGGAACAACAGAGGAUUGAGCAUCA,0.176 ratio
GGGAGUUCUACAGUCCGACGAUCCCUGGGAACAGCACCCAGUACAACAUCCUGGAAGGGUUGGAAAAGCUCAAACAUCCCGACUUUCUGAAGCAGCCACUGGCCACCCAAAAGGAUCUCACUGGCCAGGUGCCCACUCCUGUGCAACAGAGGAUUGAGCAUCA,0.198 ratio
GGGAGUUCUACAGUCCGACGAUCAACCACAACGACUGGAUUAAGCAGUAUGAAACACUAGCCGAAAUGGUAGUUCCAAGGUCCCGCAAUGUUCUUUCAGAGGACCAAGACAGUUACCUGUGUAAUGUCACCUUGUUUAGGAAGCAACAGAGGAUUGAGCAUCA,0.186 ratio
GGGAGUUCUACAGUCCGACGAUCUGCCGGCCCGGAGGAGGCCCGGCCAUGGGUGGAAACCUCAAAGCUCGGGGGGCCGGCGGCCGCAGCAGUUGCGGGGGCCCAAAGGGGAAGAAGAAGAACGGAAGGAACAGAGGAGGUAAACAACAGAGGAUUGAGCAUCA,0.121 ratio
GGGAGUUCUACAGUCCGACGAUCUUAUGGGGGAAGGGGGGGGUUCUUUAAAAUUUCUGUGGUUUGUGGCUUUUUCUUCCAUACAUCCGUUCCCACCAUCGCAUGCCCAGGGACCACUGCCUGGCAUUAUCGCAUGCUGGGAUCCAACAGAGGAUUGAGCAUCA,0.491 ratio

# Sample 5
# Target: RNA binding protein fox-1 homolog 2, RRM domain, GST-SBP tag (RBFOX2, Homo sapiens, UniProt O43251-10, residues 100-194)
# Technique: RNA Bind-n-Seq
# Form: RNA
# Medium: in vitro
# Concentration: 365 nM
# Notes: natural RNA segment, single round, ends assumed
# Relative to: no-protein control
# Reading: higher = stronger binding
# Residues (chain): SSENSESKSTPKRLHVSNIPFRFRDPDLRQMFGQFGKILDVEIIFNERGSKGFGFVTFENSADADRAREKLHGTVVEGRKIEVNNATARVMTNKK
Oligonucleotide,RBNS enrichment (R)
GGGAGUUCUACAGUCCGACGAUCAUUGUUUUUGAGACAAACAUUUUUAUAAUUCUAAUUUGGGUUAAUAAAGAUUUUAAAUAUUUCUUGGUUUACUUUUGUAAUUAUAUACACAACAAAUGUAUUAAUAACUAUGGAAUUCUCGGGUGCCAA,0.801
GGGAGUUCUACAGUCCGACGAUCGAUAAACAAACUUCUCAAGCAAAAAGAAAAGAAAAAUGAGUAGUGUGGCUGCCGCGGAGUGUGCCCUGGCCCUGGGCACUGAAGUGUUACAGUGGCUCGUUGCUUCCCUCUGGAAUUCUCGGGUGCCAA,0.342
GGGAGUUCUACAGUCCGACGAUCUGUGCAGUUAUUUAAAUUUGUUUCUGUCAAAUUAAUCAUUUUUGUUGGACGAUUCAGUGGCGGGGGGGUUUUGCCUAAAUUAGUAUAUAAAAACAAAAAUGCUAAAUUAUUGGAAUUCUCGGGUGCCAA,1.04
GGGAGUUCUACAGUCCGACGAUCCUACCCAGAGCAUUCAGCUUGGGACUGUCGUCCAGUGCAGGGCCCAGGUGAGAGGAGACUGCCAGCGAGUCCCUAGAUCUUGUAGCCAUGAUACCACACAGUCAUUUCCCUGGAAUUCUCGGGUGCCAA,0.464
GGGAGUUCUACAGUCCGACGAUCAUUGAACUCAUUCCCUGUUCCACAAACCCAUAUGUAUCCUUUCCUCUACCUCCUCCUUUCCCAAUUAAUUUCAACCAUAGUACGAUGUUUGGGGUUGUAUAUUUUGUUAAUGGAAUUCUCGGGUGCCAA,1.59
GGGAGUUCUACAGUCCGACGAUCUUCCCUAAUGUGUUUUGUAUGUGGUUAUAAAAUUGUAGACUUUUGUGAUUUUGCCAAAGUUGUAGCUAAAUAUUUAUACACUUGUCUUGAAUUUUUUUCAGAUCCACUUAUGGAAUUCUCGGGUGCCAA,0.802
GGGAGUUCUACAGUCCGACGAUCUCAAUUAAUAGAUUAAUCCAGAGACAGGAAGGAGGAAACGAAAGCUAGAGCCUCUUUGUGACUCCACCAACUCCUUCUUGUCUCCUUUUAUUGAAGAGUCCGCACACAUAUGGAAUUCUCGGGUGCCAA,0.376
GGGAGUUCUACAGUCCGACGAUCCCAGGCUGUGGGACAGCUGCCUUCCCACGAAAGUGUAAAGCAGUAUUAAGAUCAUUACUGCAUGUGCCCUAAAAACCCAAGUUUUCUAUUCCCUUAGGACAGAAAAUUGCUGGAAUUCUCGGGUGCCAA,0.731

# A few entries again (sample 1):
Oligonucleotide,E-score
CCGACATA,-0.0805
ATCGCTAC,-0.19
ATCTTGCG,-0.0816
AAAGGACC,0.0319
CTGCAACC,-0.0888
CACGGGTC,-0.053
GTAGTTCA,-0.134
CGCAGTTA,0.0515
CATTCCTC,0.0213
ACGCGCCC,0.143
GCTGAGGA,-0.0382
